Measured values of several laboratories.
Every numbered part comes from another study and shows a few of its results, in no order.
Chain of UniProt Q08881 (whole entry, looked up): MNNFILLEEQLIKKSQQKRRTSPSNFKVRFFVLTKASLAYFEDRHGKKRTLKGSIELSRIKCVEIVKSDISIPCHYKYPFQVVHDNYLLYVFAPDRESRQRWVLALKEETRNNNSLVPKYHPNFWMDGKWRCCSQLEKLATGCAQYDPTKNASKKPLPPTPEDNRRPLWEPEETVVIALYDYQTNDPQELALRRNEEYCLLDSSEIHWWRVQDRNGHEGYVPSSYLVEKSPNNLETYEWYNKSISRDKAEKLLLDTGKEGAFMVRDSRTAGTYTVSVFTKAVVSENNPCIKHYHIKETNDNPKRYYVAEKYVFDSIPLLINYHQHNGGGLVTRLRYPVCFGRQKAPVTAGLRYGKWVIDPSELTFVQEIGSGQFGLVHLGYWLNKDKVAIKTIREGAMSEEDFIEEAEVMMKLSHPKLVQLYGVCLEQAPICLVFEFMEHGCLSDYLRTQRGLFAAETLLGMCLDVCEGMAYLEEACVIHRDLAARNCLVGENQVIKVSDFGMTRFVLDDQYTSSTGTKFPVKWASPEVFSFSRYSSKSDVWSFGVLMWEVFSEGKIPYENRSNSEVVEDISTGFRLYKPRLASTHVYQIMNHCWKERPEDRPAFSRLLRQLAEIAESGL
Chain of UniProt Q8N5S9 (whole entry, looked up): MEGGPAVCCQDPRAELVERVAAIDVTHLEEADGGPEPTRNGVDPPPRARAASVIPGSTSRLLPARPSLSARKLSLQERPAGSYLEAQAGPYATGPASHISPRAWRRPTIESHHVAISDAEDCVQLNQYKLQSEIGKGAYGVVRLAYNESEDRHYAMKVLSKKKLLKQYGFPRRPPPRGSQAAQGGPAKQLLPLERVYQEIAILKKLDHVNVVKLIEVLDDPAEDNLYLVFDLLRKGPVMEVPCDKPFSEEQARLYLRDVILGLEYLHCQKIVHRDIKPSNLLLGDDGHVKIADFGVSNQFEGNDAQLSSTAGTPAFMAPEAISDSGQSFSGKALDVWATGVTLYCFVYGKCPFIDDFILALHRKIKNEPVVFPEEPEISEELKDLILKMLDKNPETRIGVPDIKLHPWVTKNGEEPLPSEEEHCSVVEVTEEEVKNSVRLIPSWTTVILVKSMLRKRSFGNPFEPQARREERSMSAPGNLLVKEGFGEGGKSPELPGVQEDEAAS
Chain of UniProt P53778 (whole entry, looked up): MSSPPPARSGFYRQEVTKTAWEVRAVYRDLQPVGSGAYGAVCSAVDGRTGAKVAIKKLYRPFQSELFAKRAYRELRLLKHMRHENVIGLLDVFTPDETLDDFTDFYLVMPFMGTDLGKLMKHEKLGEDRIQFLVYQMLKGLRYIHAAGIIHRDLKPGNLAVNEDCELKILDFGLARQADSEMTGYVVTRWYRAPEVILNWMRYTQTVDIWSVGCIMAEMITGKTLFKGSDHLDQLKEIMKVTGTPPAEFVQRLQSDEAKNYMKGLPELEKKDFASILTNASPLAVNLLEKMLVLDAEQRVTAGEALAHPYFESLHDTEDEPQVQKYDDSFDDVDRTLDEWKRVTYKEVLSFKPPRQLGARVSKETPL
Chain of UniProt P54646 (whole entry, looked up): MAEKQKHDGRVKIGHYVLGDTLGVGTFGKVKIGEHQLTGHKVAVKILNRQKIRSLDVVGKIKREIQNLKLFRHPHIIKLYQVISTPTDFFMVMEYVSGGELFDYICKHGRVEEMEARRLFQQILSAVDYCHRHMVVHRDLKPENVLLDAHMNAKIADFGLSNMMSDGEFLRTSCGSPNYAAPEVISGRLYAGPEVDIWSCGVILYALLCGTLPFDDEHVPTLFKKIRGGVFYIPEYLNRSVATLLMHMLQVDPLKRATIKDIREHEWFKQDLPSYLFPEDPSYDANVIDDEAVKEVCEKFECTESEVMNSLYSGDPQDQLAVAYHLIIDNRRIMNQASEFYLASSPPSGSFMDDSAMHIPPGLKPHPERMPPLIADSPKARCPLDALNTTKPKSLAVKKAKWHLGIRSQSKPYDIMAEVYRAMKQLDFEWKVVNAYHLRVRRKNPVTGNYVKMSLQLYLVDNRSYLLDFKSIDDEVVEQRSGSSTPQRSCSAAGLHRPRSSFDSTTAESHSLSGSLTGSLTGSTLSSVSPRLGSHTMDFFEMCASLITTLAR
Chain of UniProt Q9BVS4 (whole entry, looked up): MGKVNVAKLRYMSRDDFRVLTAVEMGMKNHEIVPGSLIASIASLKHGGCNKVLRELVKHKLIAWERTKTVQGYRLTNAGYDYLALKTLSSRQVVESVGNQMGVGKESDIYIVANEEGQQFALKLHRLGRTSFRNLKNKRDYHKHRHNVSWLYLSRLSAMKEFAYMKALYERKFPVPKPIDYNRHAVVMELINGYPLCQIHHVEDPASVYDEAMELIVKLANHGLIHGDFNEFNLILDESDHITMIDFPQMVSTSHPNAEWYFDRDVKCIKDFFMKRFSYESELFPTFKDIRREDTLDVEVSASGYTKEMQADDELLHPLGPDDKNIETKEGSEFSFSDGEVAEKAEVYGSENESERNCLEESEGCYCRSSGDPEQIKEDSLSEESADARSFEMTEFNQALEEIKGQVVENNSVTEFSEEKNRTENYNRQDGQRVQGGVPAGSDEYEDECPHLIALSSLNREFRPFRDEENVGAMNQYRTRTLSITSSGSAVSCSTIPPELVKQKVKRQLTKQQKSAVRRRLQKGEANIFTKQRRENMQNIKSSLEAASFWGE

Set 1 — read-out: enzyme activity; action: inhibitor; concentration: 10 µM
Target: Calcium/calmodulin-dependent protein kinase type II subunit alpha (CAMK2A, Homo sapiens, UniProt Q9UQM7)
Chain of UniProt Q9UQM7 (whole entry, looked up): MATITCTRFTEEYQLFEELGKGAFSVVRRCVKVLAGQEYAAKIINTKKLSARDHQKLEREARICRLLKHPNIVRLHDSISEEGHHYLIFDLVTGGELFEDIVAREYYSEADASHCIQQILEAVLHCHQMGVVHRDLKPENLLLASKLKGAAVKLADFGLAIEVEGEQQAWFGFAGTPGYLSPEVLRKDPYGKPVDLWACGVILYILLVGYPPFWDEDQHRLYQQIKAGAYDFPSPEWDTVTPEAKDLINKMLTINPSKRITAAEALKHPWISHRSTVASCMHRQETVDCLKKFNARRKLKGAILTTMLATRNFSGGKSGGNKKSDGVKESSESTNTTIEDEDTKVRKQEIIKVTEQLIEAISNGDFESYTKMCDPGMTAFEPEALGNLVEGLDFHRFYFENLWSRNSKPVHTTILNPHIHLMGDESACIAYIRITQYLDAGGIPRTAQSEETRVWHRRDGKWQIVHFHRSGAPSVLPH
CN1CCC(=C2c3ccccc3CCc3cccnc32)CC1 gave an inhibition of -1%.
C[C@H](CC[C@@H](O[C@@H]1O[C@H](CO)[C@@H](O)[C@H](O)[C@H]1O[C@@H]1O[C@H](CO)[C@@H](O)[C@H](O)[C@H]1O)C(C)(C)O)[C@H]1CC[C@@]2(C)[C@@H]3CC=C4[C@@H](CC[C@H](O[C@@H]5O[C@H](CO)[C@@H](O)[C@H](O)[C@H]5O)C4(C)C)[C@]3(C)[C@H](O)C[C@]12C gave an inhibition of -83%.
With CCCCC/C=C\C/C=C\CCCCCCCC(=O)OCC(O)CO (stereo not drawn) the inhibition was 12%.

Set 2 — read-out: AlphaScreen signal; method: AlphaScreen counter screen; medium: His6 peptide without bromodomain; concentration: 50 µM; setting: assay interference check
CCS(=O)(=O)c1cccc(-c2cc(C(=O)NC3CCN(C)CC3)c(C)c3[nH]c4ncc(C)cc4c23)c1 gave an inhibition of 19.1%.
Nc1nccc(-c2c(-c3ccc(F)cc3)ncn2C2CCCCC2)n1 gave an inhibition of 19.5%.
The inhibition of O=S(=O)(c1cccc2c(I)cccc12)N1CCCNCC1 is reported as 20.3%.
With COc1ccc(-c2c(-c3ccccc3)oc3ncnc(N)c23)cc1 the inhibition was 2.3%.
NC(=O)c1ccc(-c2nc(-c3ccc4c(c3)OCCO4)c(-c3ccccn3)[nH]2)cc1 gave an inhibition of 43.4%.
With COc1ccc(Nc2nc(N)nc3[nH]cnc23)cc1 the inhibition was 11.6%.
O=C1NC(=O)[C@@H](c2cn3c4c(cccc24)CCC3)[C@@H]1c1c[nH]c2ccccc12 gave an inhibition of 55.5%.

Set 3 — Compound: CSc1cccnc1N1CCN(Cc2nc3ccccc3[nH]2)CC1; read-out: cell-free assay; method: competition with immobilised ligand; concentration: 1 µM
The remaining binding was 97% (Tyrosine-protein kinase ITK/TSK (ITK, Homo sapiens, UniProt Q08881)).
It gave 98% for remaining binding (Mitogen-activated protein kinase 12 (MAPK12, Homo sapiens, UniProt P53778)).
It gave 100% for remaining binding (5'-AMP-activated protein kinase catalytic subunit alpha-2 (PRKAA2, Homo sapiens, UniProt P54646)).
The remaining binding was 100% (Calcium/calmodulin-dependent protein kinase kinase 1 (CAMKK1, Homo sapiens, UniProt Q8N5S9)).
It gave 100% for remaining binding (Serine/threonine-protein kinase RIO2 (RIOK2, Homo sapiens, UniProt Q9BVS4)).

Set 4 — read-out: enzyme activity; action: inhibitor; concentration: 0.5 µM; reference: control
Target: Cyclin-dependent kinase 4, with cyclin D1 (CDK4, Homo sapiens, UniProt P11802)
Chain of UniProt P11802 (whole entry, looked up): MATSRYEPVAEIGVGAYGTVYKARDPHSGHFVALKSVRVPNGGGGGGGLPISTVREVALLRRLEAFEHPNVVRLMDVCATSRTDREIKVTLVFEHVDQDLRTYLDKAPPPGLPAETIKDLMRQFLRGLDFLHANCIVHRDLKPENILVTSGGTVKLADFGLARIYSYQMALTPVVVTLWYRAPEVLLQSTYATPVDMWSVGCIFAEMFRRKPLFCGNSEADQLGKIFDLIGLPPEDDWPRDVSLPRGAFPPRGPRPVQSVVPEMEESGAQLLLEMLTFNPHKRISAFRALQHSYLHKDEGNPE
With O=C(O)c1ccc2c3c1cccc3c(=O)n1c3ccccc3nc21 the remaining activity was 106%.
The remaining activity of CN(C)c1ccc(C=C2C(=O)Nc3ccccc32)cc1 is reported as 97.7%.
The remaining activity of O=C1NC(=O)C(c2cn(CCCO)c3ncccc23)=C1c1cnccn1 is reported as 89.5%.
For C#Cc1cccc(Nc2ncnc3cc(OCCOC)c(OCCOC)cc23)c1, the remaining activity was 96%.
CNC(=O)c1cc(Oc2ccc(NC(=O)Nc3ccc(Cl)c(C(F)(F)F)c3)cc2)ccn1 has a remaining activity of 96.2%.
For Nc1ccc2ncnc(NCCc3ccc(Oc4ccccc4)cc3)c2c1, the remaining activity was 102%.
With O=C(Nc1cccc(Nc2cc(Nc3cccc(C(F)(F)F)c3)ncn2)c1)C1CC1 the remaining activity was 103%.
With Cc1nc(-c2ccccc2)c(-c2ccncc2)o1 the remaining activity was 114%.
For Oc1ccc(-c2nc(-c3ccncc3)c(-c3ccc(F)cc3)[nH]2)cc1, the remaining activity was 105%.
COc1ccc(CNC(=O)Nc2ncc([N+](=O)[O-])s2)cc1 has a remaining activity of 97.3%.
The remaining activity of Cn1sc(=O)n(Cc2ccccc2)c1=O is reported as 98.2%.
With Cc1ccc(NC(=O)c2ccc(CN3CCN(C)CC3)cc2)cc1Nc1nc(-c2cccnc2)cs1 the remaining activity was 94.1%.
N#CC(C#N)=C(N)/C(C#N)=C/c1ccc(O)cc1 gave a remaining activity of 100%.
With COc1cc2ncnc(Nc3ccc(F)c(Cl)c3)c2cc1OCCCN1CCOCC1 the remaining activity was 94.3%.
O=C1NC(=O)C(c2cn(CCCn3ccnc3)c3ccccc23)=C1Nc1ccccc1 has a remaining activity of 99.1%.
